Experimental data gathered from unrelated publications.
Numbered parts are unrelated; each lists some results of a single study.

Block 1 — observed: enzyme activity; action: inhibitor; method: mixed micelle; added: PAPC substrate in Triton X-100 micelles; measurement: XI(50)
Target: 85/88 kDa calcium-independent phospholipase A2 (PLA2G6, Homo sapiens, UniProt O60733)
Construct (O60733 1-806): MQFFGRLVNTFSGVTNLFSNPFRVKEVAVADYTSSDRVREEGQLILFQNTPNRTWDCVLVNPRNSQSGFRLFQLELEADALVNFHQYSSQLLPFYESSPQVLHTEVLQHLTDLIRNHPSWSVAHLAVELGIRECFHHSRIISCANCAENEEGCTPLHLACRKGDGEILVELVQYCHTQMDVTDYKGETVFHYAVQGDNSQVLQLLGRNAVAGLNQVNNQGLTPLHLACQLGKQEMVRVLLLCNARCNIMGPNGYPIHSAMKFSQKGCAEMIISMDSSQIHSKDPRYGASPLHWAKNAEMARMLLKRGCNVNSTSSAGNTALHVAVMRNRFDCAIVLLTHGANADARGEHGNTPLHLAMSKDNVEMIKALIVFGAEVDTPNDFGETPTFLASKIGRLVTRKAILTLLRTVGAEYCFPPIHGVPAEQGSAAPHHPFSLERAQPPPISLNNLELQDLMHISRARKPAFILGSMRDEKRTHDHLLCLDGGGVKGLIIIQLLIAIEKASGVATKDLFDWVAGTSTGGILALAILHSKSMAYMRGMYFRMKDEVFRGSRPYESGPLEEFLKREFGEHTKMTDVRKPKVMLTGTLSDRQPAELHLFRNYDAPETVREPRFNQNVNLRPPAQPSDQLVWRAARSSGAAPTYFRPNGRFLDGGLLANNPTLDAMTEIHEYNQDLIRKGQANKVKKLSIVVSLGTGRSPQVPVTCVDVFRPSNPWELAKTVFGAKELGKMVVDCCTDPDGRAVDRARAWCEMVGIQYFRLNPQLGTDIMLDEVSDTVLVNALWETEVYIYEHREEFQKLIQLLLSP
O=C(C(F)CCCc1ccccc1)C(F)(F)F (stereo not shown): 0.0025 mole fraction
CCCCCCCCc1ccc(OCCCC(=O)C(F)(F)F)cc1: 0.0029 mole fraction
O=C(C(F)CCCc1ccccc1)C(F)(F)C(F)(F)F (stereo not shown): 0.0005 mole fraction
O=C(CCCOc1ccccc1)C(F)(F)C(F)(F)F: 0.0036 mole fraction
CCCCCCCCc1ccc(OCCCC(=O)C(F)(F)C(F)(F)F)cc1: 0.0024 mole fraction

Further values, each from its own experiment
PLA2G6: 85/88 kDa calcium-independent phospholipase A2 (PLA2G6, Homo sapiens, UniProt O60733)
Kdm6b fragment (Mus musculus) (sequence not shown)
Kd (nucleosome 185 bp Widom 601 (Homo sapiens); EMSA; 15-30 minutes, pH 7.5, NaCl 50 mM): 1220 nM

CCCC[C@H](NC(=O)C(=O)CCCCc1ccc(OC)cc1)C(=O)NCCCC(=O)OC(C)(C)C
XI(50) (PLA2G6; enzyme activity, mixed micelle): 0.007 mole fraction

O=C(CCCCc1ccccc1)C(F)(F)C(F)(F)F
XI(50) (PLA2G6; enzyme activity, inhibitor, mixed micelle): 0.0073 mole fraction

O=C(CCCCc1ccccc1)C(F)(F)C(F)(F)F
IC50 (PLA2G6; enzyme activity, inhibitor, mixed micelle; converted from mole fraction): 770 nM

CCCCCCCCSCC(=O)C(F)(F)F
IC50 (PLA2G6; enzyme activity, inhibitor, mixed micelle; PAPC/Triton X-100 mixed micelles; mole fraction in micelle surface): 0.0002 mole fraction
